Experimental data pooled from the literature.
Each numbered part is a random draw from the data of one study; scales do not carry over between parts. Positions count from the first letter of the parent shown.

Set 1 — target: CEP164, C-terminal peptide (human); technique: DHFR complementation, deep sequencing; medium: yeast; reference: wild type; direction: higher = weaker binding
Setting: single substitutions, model-inferred values
Starting sequence: PDZK1, PDZ domain 2 (human); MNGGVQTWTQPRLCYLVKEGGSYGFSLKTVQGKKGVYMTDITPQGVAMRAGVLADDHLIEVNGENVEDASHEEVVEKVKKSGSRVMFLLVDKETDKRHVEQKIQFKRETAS; partner HNRVKVYRF
| Variant | binding free energy change [kcal/mol] |
| --- | --- |
| R84K | 0.00489 |
| I59N | 0.971 |
| K18W | 0.538 |
| D68G | -0.0341 |
| A69E | -0.0956 |
| H71E | 0.929 |
| V90C | -0.109 |
| E60Y | 0.535 |
| Y37A | 0.91 |
| S81K | 0.865 |
| K79M | 0.0214 |
| V52L | 1.12 |
| G35Q | 1.02 |
| M48V | 0.477 |
| K102E | -0.0692 |
| M48S | -0.0882 |
| V66T | 0.902 |
| I103S | -0.115 |
| V78Q | 1.65 |
| D56A | 0.065 |
| V90D | -0.0436 |
| F87S | 1.66 |
| Q31S | 0.044 |
| E60I | 0.351 |
| M38H | 1.35 |

Set 2 — target: CCNA2, cyclin fold, Cln2 fusion (human); technique: yeast growth competition, sequencing; medium: yeast; setting: strong parent motif; reference: not given; direction: higher = stronger binding
Starting sequence: E2F1 docking peptide (human); PPVKRRLDLETDH
| Variant | normalised enrichment score |
| --- | --- |
| H13M | 4.93 |
| R6P | 0.326 |
| T11L | 4.52 |
| V3T | 2.63 |
| P1E | 3.15 |
| R5N | 0.629 |
| L7P | -0.361 |
| R5A | -0.432 |
| D12E | 4.54 |
| D12S | 4.53 |
| E10G | 5.73 |
| E10H | 4.78 |
| T11W | 5.13 |
| T11I | 3.12 |
| R5L | -0.372 |
| E10P | 2.39 |
| V3D | 0.48 |
| D8S | 3.7 |
| L7M | 0.363 |
| T11Y | 6.17 |

Set 3 — technique: RNA Bind-n-Seq; molecule type: RNA; medium: in vitro; concentration: 365 nM; reference: no-protein control; direction: higher = stronger binding
Target: RNA binding protein fox-1 homolog 2, RRM domain, GST-SBP tag (RBFOX2, Homo sapiens, UniProt O43251-10, residues 100-194)
Setting: natural RNA segment, single round, ends assumed
Residues (chain): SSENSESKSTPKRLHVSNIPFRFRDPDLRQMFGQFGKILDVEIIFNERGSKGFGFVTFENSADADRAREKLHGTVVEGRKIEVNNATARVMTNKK
| Sequence | RBNS enrichment (R) |
| --- | --- |
| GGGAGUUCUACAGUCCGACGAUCAACUCACACAACUAGGAAGUGGCUGAGUCAGGACUUGAACCCAGGUCUCCCUGGAUCAGAACAGGAGCUCUUAACUACAGUGGCUGAAUAGCUUCUCCAAAGGCUCCCUGUGGAAUUCUCGGGUGCCAA | 0.299 |
| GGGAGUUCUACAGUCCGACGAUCCUUGCUUUCAUUUGAAGUUUGGGUUUGCUUUCUGUGUUCUGUGCGUAUCUUGUUCAGUGUCGUCAAGGUUGGGCUUCACGUCUCACUGCAGUGGAGCGAGCGGACAUUCUUGGAAUUCUCGGGUGCCAA | 0.286 |
| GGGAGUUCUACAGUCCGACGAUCCGGAUAUAAAAUAAACCACGGGCCCGCCAUGGCGUUAGCCCUUCCUUUUGCAGUUGCGUCUGGGAAGGGGCCCCGGACUCCCUCGAGAGAAUGUGCUAGAGACAGCCCCUUGGAAUUCUCGGGUGCCAA | 0.788 |
| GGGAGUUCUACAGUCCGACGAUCCACCGGAAUCUUUCCCCCUUCGUGUGUUUAGUGGAAACAUCCCCCCUCCUAAACAAACUAACAAAACCAAUAUGGAGGUGGGGGGAGAUGAAGUCCUGUGGAACUGUCUAUGGAAUUCUCGGGUGCCAA | 0.3 |
| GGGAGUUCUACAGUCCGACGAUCUCCUAUACUGGCAUUAGGCGUCUCCUCAUCCCUCACCCUGACCUUUCUCCUGUCCUUUUCUUGGCUGGAAGAAGUUGGCCUCCUGGGAGUGUAGUUUUCUGUUUUAAAUCUGGAAUUCUCGGGUGCCAA | 0.396 |
| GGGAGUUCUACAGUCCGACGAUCUUGUAUAAUCAUGUAUCCUCUUGUGUGCUGGUAGAGAUUUUAAUCCUGAUUUUUCCAUAAAACAUGAGUAUUAAGAAAUAAUUCCUGGUUUGGAGAAACUGGAGAAAUCAUGGAAUUCUCGGGUGCCAA | 0.393 |
| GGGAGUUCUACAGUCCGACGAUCUUUUUUAAGCUUCGGUGGCAGCUCAGCCAUUAAGAGAGUUUACAUCCAUUUCCCCACUUAUUUAUAACCAGCCUUCCUUUCAGUCCUAGUGCCUGGAUCAAUGAGAUGGAUGGAAUUCUCGGGUGCCAA | 0.5 |
| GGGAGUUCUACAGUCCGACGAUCGUAUCUUCUAGCACCAACUGCUGUAAAGCAAUGCUGCAAAUAAUGCUUGAAUACAAGUGGCUAAGCCAACAACAGAAUAAAUACUUUUAUAGUAGUUUUAUAAUCCUGAAUGGAAUUCUCGGGUGCCAA | 0.92 |
| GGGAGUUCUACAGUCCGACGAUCGUGGGCAGCCCUGCUCUCUGGACACCAGUGGGUCCUCAGCCCCCAUGGCAGGGGCUCCUCUGUCUGGCCUGCCUUUUUUUCCUGGUCAGCUGCUCUUAGCGCCGGCUCUGUGGAAUUCUCGGGUGCCAA | 0.373 |
| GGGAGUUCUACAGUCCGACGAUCUUCCUCCCACACCCUGCCAGCCUUGCAUAAGCCAUUUGUUGCAGCAUUUGUUGCUCUUGGUCCAGUCCGCCUGCCUCCUUAGGAGACCGUUCCAUGACAUGCAAGGGGAAUGGAAUUCUCGGGUGCCAA | 3.3 |
| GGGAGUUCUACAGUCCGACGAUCUCAACUGGCCAGGCAGGGUGGCUCACGCCUGUACUCCCAGCAUUUUGUGAGGCCAAGGUGGGUGGAUCACCUGAGGUCAGGAGUUUGAGACCAGCCUGACCAAACAUGGCUGGAAUUCUCGGGUGCCAA | 3.65 |
| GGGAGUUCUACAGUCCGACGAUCUGUAUAGGGGUUAUAGUGGGGAAGUGGAUAGGGGAUUCAUUUUCUUAUGUGACAUUUUGCCUUAAGAAUAUAAAAGUGCUUUAGCACUGAUGGCUGGCAUUUUUAAUAUAUGGAAUUCUCGGGUGCCAA | 1.02 |

Set 4 — target: JUN, bZIP domain (human); technique: DHFR protein complementation; medium: yeast; reference: wild-type JUN-FOS pair; direction: higher = stronger binding
Setting: single substitutions, most at no-binding floor
Starting sequence: JUN, bZIP domain (human); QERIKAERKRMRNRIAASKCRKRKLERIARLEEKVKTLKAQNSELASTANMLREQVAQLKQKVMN; partner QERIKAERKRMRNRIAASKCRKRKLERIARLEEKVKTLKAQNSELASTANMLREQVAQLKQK
| Variant | binding fitness [natural log] |
| --- | --- |
| Q55H | -0.556 |
| K34V | -0.163 |
| T37I | -0.164 |
| L38Q | -1.19 |
| V56L | -0.166 |
| S43L | -0.184 |
| E54W | -1.02 |
| A49I | 0.071 |
| R30N | -0.297 |
| V35Y | -0.582 |
| Q58A | -0.175 |
| L45I | -0.798 |
| A29V | -0.604 |
| E33H | -0.447 |
| E44I | -0.298 |
| A40I | -0.303 |
| A40W | -0.685 |
| A57W | -0.595 |
| L45D | -1.04 |
| K36N | -0.36 |
| E44T | -0.48 |
| I28F | -1.01 |

Set 5 — technique: DHFR PCA, deep sequencing; medium: yeast; added: (+)-ABA 0.0091 µM; reference: wild-type fitted maximum; direction: higher = stronger binding
Target: ABI1, truncated, D143A, DHFR fusion (Arabidopsis thaliana)
Setting: methotrexate growth selection, single substitutions
Starting sequence: PYL1, truncated, DHFR fusion (Arabidopsis thaliana); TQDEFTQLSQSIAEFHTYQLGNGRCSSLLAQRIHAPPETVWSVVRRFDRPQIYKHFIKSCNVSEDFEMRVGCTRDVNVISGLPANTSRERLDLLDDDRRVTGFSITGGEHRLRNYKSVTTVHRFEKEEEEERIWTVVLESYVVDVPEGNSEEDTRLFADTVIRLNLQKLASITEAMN
| Variant | relative binding score [%] |
| --- | --- |
| E38S | 1.96 |
| I33G | 3.38 |
| E174D | -1.38 |
| R46P | -1.18 |
| A13I | 0.879 |
| D48C | 0.422 |
| Q10C | 9.42 |
| D97R | 16.9 |
| E127C | 32.2 |
| S104R | 3.22 |
| E4Y | 15.3 |
| M68I | 38.4 |
| R123K | 56.8 |
| R98T | 3.66 |
| D3Y | 46.2 |
| R88N | 3.62 |
| F15P | 1.14 |
| D95G | -9.04 |
| C72E | 14.4 |
| L156K | -1.49 |
| V40F | -5.26 |
| F47M | -5.04 |
| P36M | 4.63 |
| V44W | 3.98 |
| S63A | 52.9 |

Some of these lines once more (set 3):
| Sequence | RBNS enrichment (R) |
| --- | --- |
| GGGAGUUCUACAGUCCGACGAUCGUAUCUUCUAGCACCAACUGCUGUAAAGCAAUGCUGCAAAUAAUGCUUGAAUACAAGUGGCUAAGCCAACAACAGAAUAAAUACUUUUAUAGUAGUUUUAUAAUCCUGAAUGGAAUUCUCGGGUGCCAA | 0.92 |
| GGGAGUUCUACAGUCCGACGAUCUUCCUCCCACACCCUGCCAGCCUUGCAUAAGCCAUUUGUUGCAGCAUUUGUUGCUCUUGGUCCAGUCCGCCUGCCUCCUUAGGAGACCGUUCCAUGACAUGCAAGGGGAAUGGAAUUCUCGGGUGCCAA | 3.3 |
| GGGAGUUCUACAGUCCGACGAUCUUUUUUAAGCUUCGGUGGCAGCUCAGCCAUUAAGAGAGUUUACAUCCAUUUCCCCACUUAUUUAUAACCAGCCUUCCUUUCAGUCCUAGUGCCUGGAUCAAUGAGAUGGAUGGAAUUCUCGGGUGCCAA | 0.5 |
| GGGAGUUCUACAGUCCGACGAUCCACCGGAAUCUUUCCCCCUUCGUGUGUUUAGUGGAAACAUCCCCCCUCCUAAACAAACUAACAAAACCAAUAUGGAGGUGGGGGGAGAUGAAGUCCUGUGGAACUGUCUAUGGAAUUCUCGGGUGCCAA | 0.3 |
| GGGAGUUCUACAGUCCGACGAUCUCAACUGGCCAGGCAGGGUGGCUCACGCCUGUACUCCCAGCAUUUUGUGAGGCCAAGGUGGGUGGAUCACCUGAGGUCAGGAGUUUGAGACCAGCCUGACCAAACAUGGCUGGAAUUCUCGGGUGCCAA | 3.65 |
| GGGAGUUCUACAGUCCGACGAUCGUGGGCAGCCCUGCUCUCUGGACACCAGUGGGUCCUCAGCCCCCAUGGCAGGGGCUCCUCUGUCUGGCCUGCCUUUUUUUCCUGGUCAGCUGCUCUUAGCGCCGGCUCUGUGGAAUUCUCGGGUGCCAA | 0.373 |
| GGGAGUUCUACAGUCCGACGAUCAACUCACACAACUAGGAAGUGGCUGAGUCAGGACUUGAACCCAGGUCUCCCUGGAUCAGAACAGGAGCUCUUAACUACAGUGGCUGAAUAGCUUCUCCAAAGGCUCCCUGUGGAAUUCUCGGGUGCCAA | 0.299 |
| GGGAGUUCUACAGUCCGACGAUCCGGAUAUAAAAUAAACCACGGGCCCGCCAUGGCGUUAGCCCUUCCUUUUGCAGUUGCGUCUGGGAAGGGGCCCCGGACUCCCUCGAGAGAAUGUGCUAGAGACAGCCCCUUGGAAUUCUCGGGUGCCAA | 0.788 |
| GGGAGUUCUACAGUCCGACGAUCUUGUAUAAUCAUGUAUCCUCUUGUGUGCUGGUAGAGAUUUUAAUCCUGAUUUUUCCAUAAAACAUGAGUAUUAAGAAAUAAUUCCUGGUUUGGAGAAACUGGAGAAAUCAUGGAAUUCUCGGGUGCCAA | 0.393 |
| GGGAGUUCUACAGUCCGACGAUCCUUGCUUUCAUUUGAAGUUUGGGUUUGCUUUCUGUGUUCUGUGCGUAUCUUGUUCAGUGUCGUCAAGGUUGGGCUUCACGUCUCACUGCAGUGGAGCGAGCGGACAUUCUUGGAAUUCUCGGGUGCCAA | 0.286 |
| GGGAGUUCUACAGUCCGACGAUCUCCUAUACUGGCAUUAGGCGUCUCCUCAUCCCUCACCCUGACCUUUCUCCUGUCCUUUUCUUGGCUGGAAGAAGUUGGCCUCCUGGGAGUGUAGUUUUCUGUUUUAAAUCUGGAAUUCUCGGGUGCCAA | 0.396 |
| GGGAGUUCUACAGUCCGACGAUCUGUAUAGGGGUUAUAGUGGGGAAGUGGAUAGGGGAUUCAUUUUCUUAUGUGACAUUUUGCCUUAAGAAUAUAAAAGUGCUUUAGCACUGAUGGCUGGCAUUUUUAAUAUAUGGAAUUCUCGGGUGCCAA | 1.02 |
